Measurements of several laboratories.
A part holds a random share of what one study measured. Values joined by “and” are separate records of one study, mostly repeats; a detail may differ.
Sequence of UniProt Q9UKI8 (whole entry, looked up): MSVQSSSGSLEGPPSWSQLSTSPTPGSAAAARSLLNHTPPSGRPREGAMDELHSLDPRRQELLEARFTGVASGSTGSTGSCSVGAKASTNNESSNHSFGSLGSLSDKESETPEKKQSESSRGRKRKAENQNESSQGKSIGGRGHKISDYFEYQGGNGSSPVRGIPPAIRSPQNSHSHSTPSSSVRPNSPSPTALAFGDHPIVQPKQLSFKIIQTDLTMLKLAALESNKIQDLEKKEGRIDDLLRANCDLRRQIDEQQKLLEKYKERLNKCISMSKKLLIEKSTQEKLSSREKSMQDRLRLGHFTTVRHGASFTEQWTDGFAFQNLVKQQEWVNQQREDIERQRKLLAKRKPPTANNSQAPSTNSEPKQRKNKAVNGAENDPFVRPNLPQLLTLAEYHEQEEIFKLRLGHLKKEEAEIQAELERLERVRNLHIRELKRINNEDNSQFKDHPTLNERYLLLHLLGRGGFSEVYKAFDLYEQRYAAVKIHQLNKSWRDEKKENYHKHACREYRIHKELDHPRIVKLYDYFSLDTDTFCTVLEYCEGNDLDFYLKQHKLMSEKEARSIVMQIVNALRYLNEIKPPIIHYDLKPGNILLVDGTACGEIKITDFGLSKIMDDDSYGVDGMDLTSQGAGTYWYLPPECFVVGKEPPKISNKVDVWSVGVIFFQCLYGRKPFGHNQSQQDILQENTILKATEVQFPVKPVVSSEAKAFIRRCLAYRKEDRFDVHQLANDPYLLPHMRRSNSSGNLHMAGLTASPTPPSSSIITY
Sequence of UniProt P36897 (whole entry, looked up): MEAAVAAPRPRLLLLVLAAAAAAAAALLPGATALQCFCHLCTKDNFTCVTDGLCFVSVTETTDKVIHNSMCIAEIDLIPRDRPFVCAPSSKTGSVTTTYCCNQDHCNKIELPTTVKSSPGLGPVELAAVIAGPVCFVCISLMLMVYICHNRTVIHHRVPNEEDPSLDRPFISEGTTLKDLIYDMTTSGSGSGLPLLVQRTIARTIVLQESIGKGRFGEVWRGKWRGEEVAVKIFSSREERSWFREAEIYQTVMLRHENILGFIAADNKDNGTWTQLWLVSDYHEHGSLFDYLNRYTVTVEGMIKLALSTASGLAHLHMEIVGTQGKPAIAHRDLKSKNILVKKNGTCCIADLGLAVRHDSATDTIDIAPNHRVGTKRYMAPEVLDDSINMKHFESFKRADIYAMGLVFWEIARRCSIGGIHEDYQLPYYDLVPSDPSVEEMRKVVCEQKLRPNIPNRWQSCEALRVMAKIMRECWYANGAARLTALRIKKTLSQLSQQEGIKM
Sequence of UniProt Q8IVH8 (whole entry, looked up): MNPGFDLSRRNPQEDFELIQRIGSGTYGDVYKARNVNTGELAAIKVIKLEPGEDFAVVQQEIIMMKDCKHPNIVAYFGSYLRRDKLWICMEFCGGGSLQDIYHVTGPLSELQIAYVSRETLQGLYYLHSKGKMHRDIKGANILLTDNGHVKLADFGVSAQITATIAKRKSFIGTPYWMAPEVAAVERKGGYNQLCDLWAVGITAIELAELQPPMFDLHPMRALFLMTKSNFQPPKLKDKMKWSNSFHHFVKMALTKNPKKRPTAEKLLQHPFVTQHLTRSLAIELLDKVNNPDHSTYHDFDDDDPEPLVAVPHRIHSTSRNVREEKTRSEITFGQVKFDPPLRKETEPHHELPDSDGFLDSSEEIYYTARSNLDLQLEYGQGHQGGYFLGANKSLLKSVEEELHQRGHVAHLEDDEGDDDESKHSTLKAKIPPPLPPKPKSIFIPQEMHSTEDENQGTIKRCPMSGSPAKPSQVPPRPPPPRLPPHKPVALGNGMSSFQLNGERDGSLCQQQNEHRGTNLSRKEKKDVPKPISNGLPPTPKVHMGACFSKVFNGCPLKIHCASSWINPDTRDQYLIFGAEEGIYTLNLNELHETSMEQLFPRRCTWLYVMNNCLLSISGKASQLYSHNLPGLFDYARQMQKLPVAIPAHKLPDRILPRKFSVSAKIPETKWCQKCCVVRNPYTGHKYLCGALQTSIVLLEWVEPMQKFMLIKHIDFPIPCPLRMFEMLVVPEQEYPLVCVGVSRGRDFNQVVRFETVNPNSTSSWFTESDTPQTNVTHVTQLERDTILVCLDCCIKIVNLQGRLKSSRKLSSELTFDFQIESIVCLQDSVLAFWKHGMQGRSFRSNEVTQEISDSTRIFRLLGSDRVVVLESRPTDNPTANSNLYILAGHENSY
Sequence of UniProt P06239 (whole entry, looked up): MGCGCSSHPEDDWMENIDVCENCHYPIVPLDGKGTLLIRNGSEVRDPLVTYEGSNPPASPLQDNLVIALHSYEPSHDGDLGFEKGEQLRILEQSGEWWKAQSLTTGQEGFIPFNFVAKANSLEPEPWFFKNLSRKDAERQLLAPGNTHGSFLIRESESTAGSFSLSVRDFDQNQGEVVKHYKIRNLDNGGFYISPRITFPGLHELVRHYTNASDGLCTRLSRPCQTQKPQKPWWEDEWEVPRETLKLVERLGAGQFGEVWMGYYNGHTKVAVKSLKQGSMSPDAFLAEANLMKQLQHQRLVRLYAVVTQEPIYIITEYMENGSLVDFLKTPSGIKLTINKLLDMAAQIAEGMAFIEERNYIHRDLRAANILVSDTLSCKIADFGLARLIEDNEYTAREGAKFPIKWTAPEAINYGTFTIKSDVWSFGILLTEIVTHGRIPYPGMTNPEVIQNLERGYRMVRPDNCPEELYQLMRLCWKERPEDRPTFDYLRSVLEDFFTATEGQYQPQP
Sequence of UniProt P53671 (whole entry, looked up): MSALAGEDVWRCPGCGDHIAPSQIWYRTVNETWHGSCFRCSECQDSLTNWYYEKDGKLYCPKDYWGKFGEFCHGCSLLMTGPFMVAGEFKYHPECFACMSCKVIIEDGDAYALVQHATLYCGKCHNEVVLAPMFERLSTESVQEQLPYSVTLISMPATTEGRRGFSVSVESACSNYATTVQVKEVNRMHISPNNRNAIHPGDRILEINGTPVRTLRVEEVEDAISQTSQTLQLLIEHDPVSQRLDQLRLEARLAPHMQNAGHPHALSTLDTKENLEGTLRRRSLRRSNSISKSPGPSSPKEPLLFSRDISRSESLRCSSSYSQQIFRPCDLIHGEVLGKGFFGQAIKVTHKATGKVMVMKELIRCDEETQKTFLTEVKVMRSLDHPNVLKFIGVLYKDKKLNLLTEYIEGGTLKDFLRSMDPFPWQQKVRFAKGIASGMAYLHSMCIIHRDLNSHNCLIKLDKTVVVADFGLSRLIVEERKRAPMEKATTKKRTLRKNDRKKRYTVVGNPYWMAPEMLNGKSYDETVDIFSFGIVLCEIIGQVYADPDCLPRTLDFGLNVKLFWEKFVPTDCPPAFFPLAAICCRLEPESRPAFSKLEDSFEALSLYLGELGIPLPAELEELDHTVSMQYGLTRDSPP
Sequence of UniProt Q96L34 (whole entry, looked up): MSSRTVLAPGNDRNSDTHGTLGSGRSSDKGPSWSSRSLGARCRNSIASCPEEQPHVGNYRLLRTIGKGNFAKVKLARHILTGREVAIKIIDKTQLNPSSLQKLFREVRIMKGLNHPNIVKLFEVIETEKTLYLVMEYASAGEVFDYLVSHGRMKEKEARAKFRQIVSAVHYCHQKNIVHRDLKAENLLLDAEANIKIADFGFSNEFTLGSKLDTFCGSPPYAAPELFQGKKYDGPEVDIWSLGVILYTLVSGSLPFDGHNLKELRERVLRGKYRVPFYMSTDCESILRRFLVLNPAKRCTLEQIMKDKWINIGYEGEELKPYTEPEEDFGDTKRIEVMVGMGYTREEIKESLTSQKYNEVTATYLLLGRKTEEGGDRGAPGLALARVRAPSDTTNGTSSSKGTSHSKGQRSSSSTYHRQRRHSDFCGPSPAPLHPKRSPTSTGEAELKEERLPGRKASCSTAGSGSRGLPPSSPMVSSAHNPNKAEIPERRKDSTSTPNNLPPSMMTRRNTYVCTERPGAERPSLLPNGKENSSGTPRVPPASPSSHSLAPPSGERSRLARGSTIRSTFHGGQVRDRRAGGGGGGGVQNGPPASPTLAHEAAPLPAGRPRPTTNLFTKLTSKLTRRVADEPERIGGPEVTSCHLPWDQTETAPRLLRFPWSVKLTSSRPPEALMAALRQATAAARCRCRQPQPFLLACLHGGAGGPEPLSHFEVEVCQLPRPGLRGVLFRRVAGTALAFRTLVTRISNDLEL
Sequence of UniProt Q13705 (whole entry, looked up): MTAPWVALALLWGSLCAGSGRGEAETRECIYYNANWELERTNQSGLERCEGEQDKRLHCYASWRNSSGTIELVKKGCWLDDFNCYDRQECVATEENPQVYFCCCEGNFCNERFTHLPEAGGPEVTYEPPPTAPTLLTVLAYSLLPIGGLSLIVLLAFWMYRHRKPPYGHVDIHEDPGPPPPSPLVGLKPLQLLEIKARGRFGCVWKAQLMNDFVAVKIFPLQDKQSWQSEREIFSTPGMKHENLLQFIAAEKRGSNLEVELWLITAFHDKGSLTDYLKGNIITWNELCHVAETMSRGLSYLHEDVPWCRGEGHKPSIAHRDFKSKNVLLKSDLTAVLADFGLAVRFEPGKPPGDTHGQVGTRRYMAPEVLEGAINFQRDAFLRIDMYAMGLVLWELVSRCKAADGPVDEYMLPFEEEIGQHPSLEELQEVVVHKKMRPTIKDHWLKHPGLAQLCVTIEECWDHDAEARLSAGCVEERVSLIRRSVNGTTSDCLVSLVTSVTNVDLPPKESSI
Sequence of UniProt Q13882 (whole entry, looked up): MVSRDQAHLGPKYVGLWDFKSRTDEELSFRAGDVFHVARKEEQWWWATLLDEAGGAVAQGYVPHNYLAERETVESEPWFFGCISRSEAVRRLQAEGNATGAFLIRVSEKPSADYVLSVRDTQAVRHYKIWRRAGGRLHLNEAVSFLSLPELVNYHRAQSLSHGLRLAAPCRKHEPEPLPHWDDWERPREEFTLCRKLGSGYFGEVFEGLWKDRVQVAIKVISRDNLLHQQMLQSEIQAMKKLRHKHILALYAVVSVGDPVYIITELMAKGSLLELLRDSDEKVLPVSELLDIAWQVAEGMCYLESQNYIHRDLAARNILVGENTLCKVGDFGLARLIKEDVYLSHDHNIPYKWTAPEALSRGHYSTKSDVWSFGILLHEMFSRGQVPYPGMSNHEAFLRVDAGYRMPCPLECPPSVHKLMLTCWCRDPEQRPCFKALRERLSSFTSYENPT

Block 1
Cell line: Huh-7
Tested at: 10 µM
Time: 24 h
| SMILES | viability [%] |
| --- | --- |
| CC[C@H]1OC(=O)C[C@@H](O)[C@H](C)[C@@H](O[C@@H]2O[C@H](C)[C@@H](O)[C@H](N(C)C)[C@H]2O)[C@@H](CCN2C[C@H](C)C[C@H](C)C2)C[C@@H](C)C(=O)/C=C/C(C)=C/[C@@H]1CO[C@@H]1O[C@H](C)[C@@H](O)[C@@H](OC)[C@H]1OC | 104 |
| Cn1c(=O)c2[nH]cnc2n(C)c1=O | 95.2 |
| COC(=O)[C@H](Cc1ccccc1)NC(=O)[C@@H](N)CC(=O)O | 102 |
| CN(C)CCC=C1c2ccccc2CCc2ccccc21 | 96.5 |
| C[C@H]1C[C@@H]2[C@H]([C@@H](O)C[C@@]3(C)[C@H]2CC[C@]3(O)C(=O)CO)[C@@]2(C)C=CC(=O)C=C12 | 98.8 |
| CC(CCc1ccc(O)cc1)NCCc1ccc(O)c(O)c1 (stereo not drawn) | 103 |

Block 2
Compound: COc1ccc(-c2c(Nc3ccccn3)[nH]c3c(C4=CCCCC4)c(-c4ccccc4)nn3c2=O)cc1
Host: human
Matrix: plasma
Route: oral
| assay | setting | Tlag |
| --- | --- | --- |
| – | 200 mg twice daily | 0 h |
| LC-MS/MS | 200 mg once daily | 0 h |
| LC-MS/MS | 50 mg once daily | 0 h |

Block 3
Cell line: mouse MPNST tumor cells
Method: high-content nuclear imaging
Item: cell number
Tested at: 10 µM
Time: 12 h
Setting: mean of 2 replicates
Relative to: plate mean
Reading: higher = more cells
| SMILES | nuclei count |
| --- | --- |
| CCCC(C)NC(=O)c1ccc(Cl)c(Cl)c1 (stereo not drawn) | 1.4 z-score |
| COc1ccccc1OCC(O)CN1CCN(CC(=O)Nc2c(C)cccc2C)CC1 (stereo not drawn) | 0.563 z-score and 0.979 z-score and 0.845 z-score |
| Nc1ccc(-c2nc3cc(Oc4ccc(Oc5ccc6[nH]c(-c7ccc(N)cc7)nc6c5)cc4)ccc3[nH]2)cc1 | -5.41 z-score |
| CCCCc1oc2ccccc2c1C(=O)c1cc(I)c(OCCN(CC)CC)c(I)c1 | -4.65 z-score |

Block 4
Cell line: HaCaT
Tested at: 100 µM
Time: 36 h
| SMILES | viability [%] |
| --- | --- |
| CCCCC(CC)COC(=O)CC(C(=O)OCC(CC)CCCC)S(=O)(=O)O (stereo not drawn) | 12.1 |
| CC(C)=CCC/C(C)=C/CC/C(C)=C/CC/C(C)=C/CC1=C(C)C(=O)c2ccccc2C1=O | 74.3 |
| Cc1ccc(NC(=O)c2ccc(CN3CCN(C)CC3)cc2)cc1Nc1nc(-c2cccnc2)cs1 | 6.29 |
| COc1ccc(-c2cc(=O)c3c(O)c(OC)c(O)cc3o2)cc1OC | 60.4 |
| C#C[C@]1(O)CC[C@H]2[C@@H]3CCC4=CC(=O)CC[C@@H]4[C@H]3C(=C)C[C@@]21CC | 84.3 |

Block 5
Structure (SMILES): Cn1nc(C(=O)NCc2ccc(C(=O)O)cc2)cc1-c1ccc2[nH]ccc2c1
Observed: cell-free assay
Method: competition with immobilised ligand
Tested at: 0.1 µM
| target | remaining binding |
| --- | --- |
| MARK4 (Homo sapiens, UniProt Q96L34) | 100% |
| CHUK (Homo sapiens, UniProt O15111) | 90% |
| LIM domain kinase 2 (LIMK2, Homo sapiens, UniProt P53671) | 100% |
| CDK4 (Homo sapiens, UniProt P11802) | 84% |
| TLK1 (Homo sapiens, UniProt Q9UKI8) | 100% |
| EGFR (Homo sapiens, UniProt P00533, L858R/T790M) | 92% |
| CSNK1G2 (Homo sapiens, UniProt P78368) | 90% |
| WEE2 (Homo sapiens, UniProt P0C1S8) | 91% |
| BUB1 (Homo sapiens, UniProt O43683) | 83% |
| LRRK2 (Homo sapiens, UniProt Q5S007, G2019S) | 70% |
| TGFBR1 (Homo sapiens, UniProt P36897) | 97% |
| LCK (Homo sapiens, UniProt P06239) | 75% |
| MAPK15 (Homo sapiens, UniProt Q8TD08) | 98% |
| MAP4K3 (Homo sapiens, UniProt Q8IVH8) | 97% |
| PTK6 (Homo sapiens, UniProt Q13882) | 89% |
| RET (Homo sapiens, UniProt P07949, V804L) | 45% |
| ACVR2B (Homo sapiens, UniProt Q13705) | 100% |
| CDC42BPA (Homo sapiens, UniProt Q5VT25) | 79% |
| TRPM6 (Homo sapiens, UniProt Q9BX84) | 79% |
| LATS1 (Homo sapiens, UniProt O95835) | 100% |

Block 6
Target: His6 tag
Method: AlphaScreen counter screen
Tested at: concentration not given
| Compound | inhibition |
| --- | --- |
| Cn1c(=O)n(-c2ccc(C(C)(C)C#N)cc2)c2c3cc(-c4cnc5ccccc5c4)ccc3ncc21 | 9.25% |
| C[C@@H]1CCN(C(=O)CC#N)C[C@@H]1N(C)c1ncnc2[nH]ccc12 | -3.7% |
| O=C(CSc1ccc2nnc(-c3ccc(Cl)cc3)n2n1)NCC1CCCO1 (stereo not drawn) | -7.8% |
| Oc1c2ccccc2c2c3c(cccc13)N=N2 | 6.4% |

Repeated from above (block 1):
| SMILES | viability [%] |
| --- | --- |
| Cn1c(=O)c2[nH]cnc2n(C)c1=O | 95.2 |
| COC(=O)[C@H](Cc1ccccc1)NC(=O)[C@@H](N)CC(=O)O | 102 |
| CN(C)CCC=C1c2ccccc2CCc2ccccc21 | 96.5 |
